Published values pooled from the literature.
Compare with care: the assays were run in different laboratories. Several values in a cell are separate wells, animals, samples, runs or records. ± gives the spread as reported.
Chain of UniProt O60894 (whole entry, looked up): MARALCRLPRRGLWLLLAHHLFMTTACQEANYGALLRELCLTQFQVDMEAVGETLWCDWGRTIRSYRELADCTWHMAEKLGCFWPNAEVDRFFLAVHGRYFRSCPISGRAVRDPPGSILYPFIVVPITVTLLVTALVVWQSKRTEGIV
Chain of UniProt Q16602 (whole entry, looked up): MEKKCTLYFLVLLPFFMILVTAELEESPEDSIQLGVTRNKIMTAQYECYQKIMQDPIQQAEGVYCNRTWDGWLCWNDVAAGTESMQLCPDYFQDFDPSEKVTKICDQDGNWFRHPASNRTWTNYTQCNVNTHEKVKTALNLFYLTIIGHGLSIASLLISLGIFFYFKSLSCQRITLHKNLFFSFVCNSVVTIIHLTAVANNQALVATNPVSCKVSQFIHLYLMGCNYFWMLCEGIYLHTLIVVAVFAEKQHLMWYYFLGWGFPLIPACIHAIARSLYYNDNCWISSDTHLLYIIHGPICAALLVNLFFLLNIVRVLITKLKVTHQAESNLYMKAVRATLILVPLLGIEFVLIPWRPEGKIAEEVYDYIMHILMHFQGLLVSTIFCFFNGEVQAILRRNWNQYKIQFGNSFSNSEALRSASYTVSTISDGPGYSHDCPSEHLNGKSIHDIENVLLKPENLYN
Chain of UniProt O09047 (whole entry, looked up): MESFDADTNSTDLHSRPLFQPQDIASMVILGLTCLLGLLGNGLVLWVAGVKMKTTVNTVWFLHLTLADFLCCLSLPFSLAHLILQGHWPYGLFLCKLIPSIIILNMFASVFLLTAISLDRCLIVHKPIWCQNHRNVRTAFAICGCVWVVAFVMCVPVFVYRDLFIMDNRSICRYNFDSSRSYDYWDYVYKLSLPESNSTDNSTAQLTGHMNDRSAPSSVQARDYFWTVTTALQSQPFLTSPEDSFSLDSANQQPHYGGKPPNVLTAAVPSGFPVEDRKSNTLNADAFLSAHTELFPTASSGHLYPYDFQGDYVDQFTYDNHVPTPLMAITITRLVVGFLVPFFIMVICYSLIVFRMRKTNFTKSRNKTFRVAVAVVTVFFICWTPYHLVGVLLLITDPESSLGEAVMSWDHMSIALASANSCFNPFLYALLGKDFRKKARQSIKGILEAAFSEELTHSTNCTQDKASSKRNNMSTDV
Chain of UniProt O95665 (whole entry, looked up): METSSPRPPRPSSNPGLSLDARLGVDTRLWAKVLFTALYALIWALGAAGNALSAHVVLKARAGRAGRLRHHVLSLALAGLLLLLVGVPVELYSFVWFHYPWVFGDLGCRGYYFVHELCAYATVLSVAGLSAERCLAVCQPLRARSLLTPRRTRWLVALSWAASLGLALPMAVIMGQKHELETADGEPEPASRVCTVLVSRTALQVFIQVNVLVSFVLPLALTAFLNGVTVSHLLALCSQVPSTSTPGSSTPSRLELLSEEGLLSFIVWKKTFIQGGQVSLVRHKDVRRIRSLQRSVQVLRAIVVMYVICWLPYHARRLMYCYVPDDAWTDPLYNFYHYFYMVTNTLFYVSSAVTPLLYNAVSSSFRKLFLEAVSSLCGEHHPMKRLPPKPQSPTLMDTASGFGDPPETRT
Chain of UniProt Q01959 (whole entry, looked up): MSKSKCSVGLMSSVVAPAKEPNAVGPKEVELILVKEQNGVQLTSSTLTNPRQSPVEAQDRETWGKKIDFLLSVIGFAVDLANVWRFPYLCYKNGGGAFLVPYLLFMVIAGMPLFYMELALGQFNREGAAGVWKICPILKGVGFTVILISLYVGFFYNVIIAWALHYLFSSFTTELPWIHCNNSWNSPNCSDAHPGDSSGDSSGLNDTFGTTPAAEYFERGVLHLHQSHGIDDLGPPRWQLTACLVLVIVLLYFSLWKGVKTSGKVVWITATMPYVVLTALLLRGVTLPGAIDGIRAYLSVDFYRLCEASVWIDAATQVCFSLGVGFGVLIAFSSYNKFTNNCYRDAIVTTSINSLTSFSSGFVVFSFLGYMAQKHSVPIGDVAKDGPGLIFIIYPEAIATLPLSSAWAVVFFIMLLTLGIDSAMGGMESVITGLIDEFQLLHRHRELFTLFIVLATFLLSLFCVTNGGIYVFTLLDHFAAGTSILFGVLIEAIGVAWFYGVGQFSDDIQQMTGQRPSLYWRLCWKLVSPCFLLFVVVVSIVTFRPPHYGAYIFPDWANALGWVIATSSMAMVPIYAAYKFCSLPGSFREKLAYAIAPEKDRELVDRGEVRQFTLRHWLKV
Chain of UniProt P41145 (whole entry, looked up): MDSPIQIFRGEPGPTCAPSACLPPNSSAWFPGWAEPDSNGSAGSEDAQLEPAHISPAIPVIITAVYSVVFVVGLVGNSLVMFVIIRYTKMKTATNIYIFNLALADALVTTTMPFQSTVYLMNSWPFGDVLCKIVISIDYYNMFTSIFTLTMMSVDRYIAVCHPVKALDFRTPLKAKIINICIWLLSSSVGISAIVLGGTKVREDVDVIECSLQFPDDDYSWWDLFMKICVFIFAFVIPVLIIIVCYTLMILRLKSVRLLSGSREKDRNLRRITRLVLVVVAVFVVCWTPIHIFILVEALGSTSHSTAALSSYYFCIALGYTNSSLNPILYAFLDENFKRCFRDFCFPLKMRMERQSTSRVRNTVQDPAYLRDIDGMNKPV
Chain of UniProt Q9UKP6 (whole entry, unmodified, looked up): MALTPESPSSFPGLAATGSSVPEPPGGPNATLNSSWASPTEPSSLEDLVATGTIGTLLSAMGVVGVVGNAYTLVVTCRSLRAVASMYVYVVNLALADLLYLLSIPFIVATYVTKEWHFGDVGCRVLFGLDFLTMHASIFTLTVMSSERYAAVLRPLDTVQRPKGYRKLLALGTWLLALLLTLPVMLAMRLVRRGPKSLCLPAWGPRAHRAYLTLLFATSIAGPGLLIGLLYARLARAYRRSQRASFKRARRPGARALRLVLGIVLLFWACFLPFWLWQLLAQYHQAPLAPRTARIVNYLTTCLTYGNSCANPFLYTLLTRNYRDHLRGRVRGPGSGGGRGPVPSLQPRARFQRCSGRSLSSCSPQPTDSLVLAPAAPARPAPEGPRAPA
Chain of UniProt P30988 (whole entry, looked up): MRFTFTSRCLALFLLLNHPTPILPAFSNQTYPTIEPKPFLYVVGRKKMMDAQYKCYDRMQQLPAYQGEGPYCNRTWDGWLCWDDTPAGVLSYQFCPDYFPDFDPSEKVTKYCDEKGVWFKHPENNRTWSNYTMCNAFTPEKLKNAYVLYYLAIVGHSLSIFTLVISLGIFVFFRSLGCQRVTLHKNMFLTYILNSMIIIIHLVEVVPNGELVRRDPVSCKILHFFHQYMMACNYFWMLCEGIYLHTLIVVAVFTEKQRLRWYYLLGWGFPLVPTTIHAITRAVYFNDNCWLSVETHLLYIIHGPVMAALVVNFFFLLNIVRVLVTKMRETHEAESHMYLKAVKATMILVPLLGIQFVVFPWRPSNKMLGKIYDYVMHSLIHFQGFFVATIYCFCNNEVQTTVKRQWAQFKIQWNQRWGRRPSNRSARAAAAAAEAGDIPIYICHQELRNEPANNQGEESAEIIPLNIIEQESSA
Chain of UniProt P20309 (whole entry, looked up): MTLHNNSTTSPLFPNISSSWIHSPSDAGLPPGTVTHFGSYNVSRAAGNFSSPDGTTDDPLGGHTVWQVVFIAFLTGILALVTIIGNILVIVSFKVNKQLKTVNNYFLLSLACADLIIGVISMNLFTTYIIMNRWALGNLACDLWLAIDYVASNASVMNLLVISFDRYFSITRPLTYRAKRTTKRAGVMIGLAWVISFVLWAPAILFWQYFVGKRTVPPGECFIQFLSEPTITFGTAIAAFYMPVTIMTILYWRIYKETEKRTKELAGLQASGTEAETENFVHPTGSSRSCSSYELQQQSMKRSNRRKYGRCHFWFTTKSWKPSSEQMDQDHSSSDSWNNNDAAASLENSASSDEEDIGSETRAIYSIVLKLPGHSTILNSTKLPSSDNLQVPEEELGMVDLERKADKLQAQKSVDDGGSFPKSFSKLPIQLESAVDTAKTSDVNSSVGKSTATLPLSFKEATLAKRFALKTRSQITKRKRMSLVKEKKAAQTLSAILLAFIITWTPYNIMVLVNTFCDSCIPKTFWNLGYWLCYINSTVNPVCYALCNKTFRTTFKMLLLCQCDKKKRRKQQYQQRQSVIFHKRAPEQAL
Chain of UniProt P41143 (whole entry, unmodified, looked up): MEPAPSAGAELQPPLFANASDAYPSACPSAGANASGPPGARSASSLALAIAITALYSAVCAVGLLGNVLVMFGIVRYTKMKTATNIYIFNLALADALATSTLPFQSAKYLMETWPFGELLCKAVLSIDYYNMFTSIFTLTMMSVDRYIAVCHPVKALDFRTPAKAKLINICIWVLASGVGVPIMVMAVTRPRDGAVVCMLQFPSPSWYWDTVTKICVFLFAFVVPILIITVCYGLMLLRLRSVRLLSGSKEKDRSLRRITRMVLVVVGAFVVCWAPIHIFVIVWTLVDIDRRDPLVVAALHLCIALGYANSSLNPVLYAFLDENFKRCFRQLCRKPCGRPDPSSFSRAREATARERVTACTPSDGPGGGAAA

SMILES	tested on	assay	system	setting	how to read	quantity	value
COc1cc2c(cc1O)C(CCc1ccc(Cl)cc1)N(C)CC2 (stereo not shown)	SLC6A3 (Homo sapiens, UniProt Q01959)	cell-free assay, radioligand	–	–	–	Ki	4500 nM
Cc1cc(C(c2ccc(Cl)cc2)c2ccc(Cl)cc2)sc1C(=O)N[C@@H](CCCNC(=N)N)C(=O)O	C3a anaphylatoxin chemotactic receptor (C3ar1, Mus musculus, UniProt O09047)	GoA dissociation, agonist, NanoBiT G-protein	–	–	–	EC50	2.51 nM
CN(C)[C@H](CNC(=O)/C=C/c1cccc2ccccc12)Cc1ccc(O)cc1	NTSR2 (Homo sapiens, UniProt O95665)	–	–	–	–	Ki	> 50000 nM
CSCC[C@H](NC(=O)[C@H](CCC(N)=O)NC(=O)[C@H](CCCCN)NC(=O)[C@H](CCCNC(=N)N)NC(=O)[C@H](Cc1ccc(O)cc1)NC(=O)[C@H](CCCNC(=N)N)NC(=O)[C@H](CO)NC(=O)[C@H](Cc1ccc(O)cc1)NC(=O)[C@H](CO)NC(=O)[C@H](CC(=O)O)NC(=O)[C@@H](NC(=O)[C@@H](N)Cc1ccccc1)[C@@H](C)O)C(=O)N[C@@H](C)C(=O)N[C@H](C(=O)N[C@@H](CCCCN)C(=O)N[C@@H](CCCCn1cc(C[C@H](NC(=O)CNC(=O)[C@H](CO)NC(=O)[C@H](CCCNC(=N)N)NC(=O)[C@H](CO)NC(=O)[C@H](CC(C)C)NC(=O)[C@H](CC(C)C)NC(=O)CNC(=O)[C@H](C)NC(=O)[C@H](CC(C)C)NC(=O)[C@H](CCCNC(=N)N)NC(=O)[C@H](Cc2c[nH]cn2)NC(=O)[C@@H](NC(=O)[C@@H](N)C(C)C)[C@@H](C)O)C(=O)N[C@H](C(=O)N[C@H](C(=O)N[C@@H](CCCCN)C(=O)N[C@@H](CC(N)=O)C(=O)N[C@@H](CC(N)=O)C(=O)N[C@@H](Cc2ccccc2)C(=O)N[C@H](C(=O)N2CCC[C@H]2C(=O)N[C@H](C(=O)N[C@@H](CC(N)=O)C(=O)N[C@H](C(=O)NCC(=O)N[C@@H](CO)C(=O)N[C@@H](CCCCN)C(=O)N[C@@H](C)C(=O)N[C@@H](Cc2ccccc2)C(N)=O)C(C)C)[C@@H](C)O)C(C)C)C(C)C)C(C)C)nn1)C(=O)N[C@@H](Cc1ccc(O)cc1)C(=O)N[C@@H](CC(C)C)C(=O)N[C@@H](C)C(=O)N[C@@H](C)C(=O)N[C@H](C(=O)N[C@@H](CC(C)C)C(=O)NCC(=O)N[C@@H](CCCCN)C(=O)N[C@@H](CCCNC(=N)N)C(=O)N[C@@H](Cc1ccc(O)cc1)C(=O)N[C@@H](CCCCN)C(=O)N[C@@H](CCC(N)=O)C(=O)N[C@@H](CCCNC(=N)N)C(=O)N[C@H](C(=O)N[C@@H](CCCCN)C(=O)N[C@@H](CC(N)=O)C(=O)N[C@@H](CCCCN)C(N)=O)C(C)C)C(C)C)C(C)C	Calcitonin-gene-related peptide receptor, CALCRL/RAMP1 (Homo sapiens, UniProt O60894+Q16602)	cAMP accumulation, antagonist, LANCE cAMP	COS-7 cells, transfected	15 min	–	Kb	1 nM
Cc1cc(C(=O)Nc2nc3cccc(C)c3n2[C@H]2CCCCN(C(=O)/C=C/CN(C)C)C2)ccn1	Trypanosoma brucei brucei	–	2T1 CLK1 C215S overexpressing	2.5 µM, 72 h	–	survival	2.86% and 0.21% and 2.92% and 0.13% and 0.03% and 0.4%
O=C1NC2(CC2)COc2ncc(F)cc2[C@H]2COCCN2c2ccn3ncc1c3n2	–	–	Sprague-Dawley rat, female, serum	oral, 2.5 mg/kg/day, end of treatment, 4-week subacute toxicity	–	serum total protein	60.9 ± 4.4 g/L
COc1ccccc1-c1n[nH]c2nc(NC3CCN(C(=O)Cc4ccc(F)cc4F)CC3)ncc12	–	bead binding, competition bead pull-down, item: LINJ.35.4200	Leishmania donovani extract	10 µM	relative to: vehicle	relative abundance	1.01
C[C@@H](Cc1ccsc1)NC(=O)NC[C@H](Cc1ccc(O)cc1)N(C)C	CHRM3 (Homo sapiens, UniProt P20309)	–	–	–	–	Ki	3900 ± 1600 nM
O=C(O)CCn1c(=O)oc2cc(Cl)c(Cl)cc21	OPRK1 (Homo sapiens, UniProt P41145)	agonist	–	–	–	EC50	> 100000 nM
CSCC[C@H](NC(=O)[C@H](CCC(N)=O)NC(=O)[C@H](CCCCN)NC(=O)[C@H](CCCNC(=N)N)NC(=O)[C@H](Cc1ccc(O)cc1)NC(=O)[C@H](CCCNC(=N)N)NC(=O)[C@H](CO)NC(=O)[C@H](Cc1ccc(O)cc1)NC(=O)[C@H](CO)NC(=O)[C@H](CC(=O)O)NC(=O)[C@@H](NC(=O)[C@@H](N)Cc1ccccc1)[C@@H](C)O)C(=O)N[C@@H](C)C(=O)N[C@H](C(=O)N[C@@H](CCCCN)C(=O)N[C@@H](CCCCN)C(=O)N[C@@H](Cc1ccc(O)cc1)C(=O)N[C@@H](CC(C)C)C(=O)N[C@@H](C)C(=O)N[C@@H](C)C(=O)N[C@H](C(=O)N[C@@H](CC(C)C)C(=O)NCC(=O)N[C@@H](CCCCN)C(=O)N[C@@H](CCCNC(=N)N)C(=O)N[C@@H](Cc1ccc(O)cc1)C(=O)N[C@@H](CCCCN)C(=O)N[C@@H](CCC(N)=O)C(=O)N[C@@H](CCCCn1cc(C[C@H](NC(=O)CNC(=O)[C@H](CO)NC(=O)[C@H](CCCNC(=N)N)NC(=O)[C@H](CO)NC(=O)[C@H](CC(C)C)NC(=O)[C@H](CC(C)C)NC(=O)CNC(=O)[C@H](C)NC(=O)[C@H](CC(C)C)NC(=O)[C@H](CCCNC(=N)N)NC(=O)[C@H](Cc2c[nH]cn2)NC(=O)[C@@H](NC(=O)[C@@H](N)C(C)C)[C@@H](C)O)C(=O)N[C@H](C(=O)N[C@H](C(=O)N[C@@H](CCCCN)C(=O)N[C@@H](CC(N)=O)C(=O)N[C@@H](CC(N)=O)C(=O)N[C@@H](Cc2ccccc2)C(=O)N[C@H](C(=O)N2CCC[C@H]2C(=O)N[C@H](C(=O)N[C@@H](CC(N)=O)C(=O)N[C@H](C(=O)NCC(=O)N[C@@H](CO)C(=O)N[C@@H](CCCCN)C(=O)N[C@@H](C)C(=O)N[C@@H](Cc2ccccc2)C(N)=O)C(C)C)[C@@H](C)O)C(C)C)C(C)C)C(C)C)nn1)C(=O)N[C@H](C(=O)N[C@@H](CCCCN)C(=O)N[C@@H](CC(N)=O)C(=O)N[C@@H](CCCCN)C(N)=O)C(C)C)C(C)C)C(C)C	Amylin receptor AMY1, CALCR/RAMP1 (Homo sapiens, UniProt O60894+P30988)	cAMP accumulation, antagonist, LANCE cAMP	COS-7 cells, transfected	15 min	–	Kb	22 nM
CC(C)[C@H](NC(=O)[C@@H]1CSSC(C)(C)[C@H](NC(=O)[C@@H](N)CC(=O)O)C(=O)N[C@@H](Cc2ccccc2)C(=O)N[C@@H](Cc2c[nH]c3ccccc23)C(=O)N[C@@H](CCCCN)C(=O)N[C@@H](Cc2ccc(O)cc2)C(=O)N1)C(=O)O	UTS2R (Homo sapiens, UniProt Q9UKP6, L276A)	IP1 accumulation, agonist, HTRF	HEK293T	1 h, 37 °C, L276A mutant, 6.53	–	EC50	0.398 nM
CCN(CC)C(=O)c1ccc(C(c2cccc(O)c2)N2CC(C)N(Cc3ccccc3)CC2C)cc1 (stereo not shown)	OPRD1 (Homo sapiens, UniProt P41143, D210A)	–	–	–	–	Ki	1.25 ± 0.28 nM
Cc1cccc(/N=N/c2cccc([B-](F)(F)F)c2)c1	Chymotrypsinogen A (Bos taurus, UniProt P00766)	enzyme activity, inhibitor	–	pH 7.81, 25 °C, cis-enriched photostationary state, with: Suc-AAPF-AMC	–	Ki	212000 nM

Repeated from above:
SMILES	tested on	assay	system	setting	how to read	quantity	value
C[C@@H](Cc1ccsc1)NC(=O)NC[C@H](Cc1ccc(O)cc1)N(C)C	CHRM3 (Homo sapiens, UniProt P20309)	–	–	–	–	Ki	3900 ± 1600 nM
O=C(O)CCn1c(=O)oc2cc(Cl)c(Cl)cc21	OPRK1 (Homo sapiens, UniProt P41145)	agonist	–	–	–	EC50	> 100000 nM
